Published values pooled from the literature.
Numbered parts are unrelated; each lists some results of a single study.

Set 1
Target: Replicase polyprotein 1ab, polymerase (rep, Severe acute respiratory syndrome coronavirus 2, UniProt P0DTD1)
Effect on: enzyme activity
Mode: inhibitor
Concentration: 20 µM
| SMILES | inhibition [%] |
| --- | --- |
| Cc1nc(C)c(C)nc1C | -3.43 |
| NCc1c[nH]c(=S)n1[C@H]1CCc2c(F)cc(F)cc2C1 | -0.79 |
| CCOC(=O)N[C@@H]1CC[C@@H]2[C@@H](C1)C[C@H]1C(=O)O[C@H](C)[C@H]1[C@H]2/C=C/c1ccc(-c2cccc(F)c2)cn1 | 11.5 |
| O=C(O)c1ccc[n+]([O-])c1 | 3.52 |
| O=C(NCCCNc1nc(Nc2cccc(NC(=O)N3CCCC3)c2)ncc1I)c1cccs1 | 6.22 |
| CCCCCCCCCCCCCCCCCCCCCC(=O)O | 2.78 |
| Nc1nc2ccc(Cl)cc2c2nc(-c3ccco3)nn12 | -3.86 |
| COc1ccc(OC)c(C2C(C#N)=C(N)Oc3n[nH]c(-c4ccc5ccccc5c4)c32)c1 (stereo not drawn) | 0.51 |
| COc1[nH]c2ccc(F)cc2c1C(=O)OCC1CCN(CCNS(C)(=O)=O)CC1 | 2.82 |
| CCc1noc(C)c1-c1[nH]c2ccccc2c1C(O)CN(C)C (stereo not drawn) | -0.31 |
| Cc1[nH]c(/C=C2\C(=O)Nc3ccc(F)cc32)c(C)c1C(=O)NC[C@H](O)CN1CCOCC1 | 11.4 |
| O=C(O)C1=CO[C@@H](O[C@@H]2O[C@H](CO)[C@@H](O)[C@H](O)[C@H]2O)[C@@H]2C(CO)=CC[C@H]12 | -1.9 |
| Nc1cccc2c(=O)[nH][nH]c(=O)c12 | 0.25 |
| CN1CCC(=C2c3ccccc3CCn3c(C=O)cnc32)CC1 | 0.85 |
| OCCn1cc(-c2cnc3nnn(Cc4ccc5ncccc5c4)c3n2)cn1 | 4.28 |
| Cc1cc2c(cc1S(N)(=O)=O)S(=O)(=O)CCC2 | 4.11 |
| CC[C@]1(O)C[C@@H]2CN(CCc3c([nH]c4ccccc34)[C@@](C(=O)OC)(c3cc4c(cc3OC)N(C)[C@H]3[C@@](O)(C(N)=O)[C@H](O)[C@]5(CC)C=CCN6CC[C@]43[C@@H]65)C2)C1 | 1.61 |
| CCNC(=O)N1CCN(CCCC(c2ccc(F)cc2)c2ccc(F)cc2)CC1 | 1.86 |
| CCCCCCCCCCC(CO)CCCCCCCC (stereo not drawn) | -1.81 |
| C[C@@H]1CN(c2c(F)c(F)c3c(=O)c(C(=O)O)cn(C4CC4)c3c2F)C[C@H](C)N1 | -3.18 |
| CN1CCN(Cc2ccc(-c3cnc4[nH]cc(-c5ccc6[nH]ccc6c5)c4c3)cc2)CC1 | 2.27 |
| COc1cc(N2CCC(O)CC2)ccc1Nc1cc(Nc2ccccc2S(=O)(=O)C(C)C)c2cc[nH]c2n1 | 4.16 |
| COc1ccc([C@@H]2CC(=O)c3c(O)cc(O[C@@H]4O[C@H](CO[C@@H]5O[C@@H](C)[C@H](O)[C@@H](O)[C@H]5O)[C@@H](O)[C@H](O)[C@H]4O)cc3O2)cc1O | -0.7 |
| CC(C)(O)CC(=O)NCCn1ccc2ncnc(Nc3ccc(Oc4cccc(C(F)(F)F)c4)c(Cl)c3)c21 | 4.96 |
| OCCC#Cc1nc(-c2ccc(F)cc2)c(-c2ccncc2)n1CCCc1ccccc1 | -0.32 |

Set 2
Target: Fragile X messenger ribonucleoprotein 1, C-terminal low-complexity region (Fmr1, Mus musculus, UniProt P35922)
Method: RNA Bind-n-Seq
Form: RNA
Medium: in vitro
Concentration: 200 nM
Setting: whole 134-nt RNA, ends assumed
Together with: 150 mM KCl
Reference: input library
Direction: higher = stronger binding
| Sequence | log2 enrichment |
| --- | --- |
| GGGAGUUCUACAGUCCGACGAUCAGUCCUGUGCUACACAUCGUAUGUACCGAAUCGGGAAAAAAAGGGAAAGGGAAAGGGAAAGUAUUAUGUUACGCCGUUCGGAUCUGCACUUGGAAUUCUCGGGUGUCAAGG | 0.0618 |
| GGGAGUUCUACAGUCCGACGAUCCCUCAAGUCCUGUGCUACACAUCGUAUGUACCGAAUCGGGCGGCGGGGCGGGAAAGUAUUAUGUUACGCCGUUCGGAUCUGCACUUCCAGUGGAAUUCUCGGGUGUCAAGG | 1.07 |
| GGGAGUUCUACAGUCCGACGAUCCUCAAGUCCUGUGCUACACAUCGUAUGUACCGAAUCGGAAAAAAAGGUGGUGGAAAGUAUUAUGUUACGCCGUUCGGAUCUGCACUUCCAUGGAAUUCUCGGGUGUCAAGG | -0.103 |
| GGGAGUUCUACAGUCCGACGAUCCUGUGCUACACAUCGUAUGUACCGAAUCGGGGAAAAAAAGGGGAAAAAGGGGUUUUUGGGGAAAGUAUUAUGUUACGCCGUUCGGAUCUGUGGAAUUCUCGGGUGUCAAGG | -0.0571 |
| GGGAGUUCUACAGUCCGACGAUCAGUCCUGUGCUACACAUCGUAUGUACCGAAUCGGGGAAAAGGGAAAAGGGGAAAAGGGAAAGUAUUAUGUUACGCCGUUCGGAUCUGCACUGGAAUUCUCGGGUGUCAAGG | 0.41 |
| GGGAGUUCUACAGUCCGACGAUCUCCUGUGCUACACAUCGUAUGUACCGAAUCGGGGUUUUUGGGGUUUUUGGGUUUUUGGGGAAAGUAUUAUGUUACGCCGUUCGGAUCUGCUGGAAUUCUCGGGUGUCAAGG | 0.52 |
| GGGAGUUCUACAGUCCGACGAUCCCUCAAGUCCUGUGCUACACAUCGUAUGUACCGAAUCGGGGCCGGCCGGCCGGAAAGUAUUAUGUUACGCCGUUCGGAUCUGCACUUCCAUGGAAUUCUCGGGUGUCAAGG | -0.181 |
| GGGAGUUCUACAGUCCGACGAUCCCUCAAGUCCUGUGCUACACAUCGUAUGUACCGAAUCGGAGGGAGGGGAGGGAAAGUAUUAUGUUACGCCGUUCGGAUCUGCACUUCCAGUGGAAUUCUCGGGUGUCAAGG | 0.91 |

Set 3
Target: Interferon regulatory factor 7, full length, phosphomimetic (IRF7, Homo sapiens, UniProt Q92985, residues 1-503, S471D/S472D/S475D/S476D/S477D/S483D/S484D/S487D)
UniProt Q92985, sequence (whole entry, unmodified, looked up): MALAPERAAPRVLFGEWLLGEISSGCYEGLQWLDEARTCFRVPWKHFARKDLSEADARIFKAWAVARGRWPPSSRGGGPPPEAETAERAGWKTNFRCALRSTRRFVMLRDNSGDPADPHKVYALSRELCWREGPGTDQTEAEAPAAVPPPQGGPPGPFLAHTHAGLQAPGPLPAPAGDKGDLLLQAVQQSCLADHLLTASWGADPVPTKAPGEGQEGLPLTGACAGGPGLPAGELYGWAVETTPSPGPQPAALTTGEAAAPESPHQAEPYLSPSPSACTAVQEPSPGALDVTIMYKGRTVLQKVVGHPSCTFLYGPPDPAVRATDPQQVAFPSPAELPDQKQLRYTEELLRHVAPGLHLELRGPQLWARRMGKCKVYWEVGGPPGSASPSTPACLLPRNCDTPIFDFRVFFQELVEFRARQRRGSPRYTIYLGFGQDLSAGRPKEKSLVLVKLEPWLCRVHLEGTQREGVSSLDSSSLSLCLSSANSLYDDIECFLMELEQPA
Method: protein-binding microarray
Form: double-stranded DNA, one strand shown
Medium: in vitro
Concentration: 2200 nM top
Setting: 60-bp whole probe
Together with: salmon DNA 0.4 mg/ml
Reference: random background probes
Direction: higher = stronger binding
Shared flanks, not repeated: GCCTAGCAC … GTCTTGATTCGCTTGACGCTGCTG
| Sequence | fitted relative affinity |
| --- | --- |
| TTAGGTTCCGTTTTCCTTTAGTGCTAG | 5.41 z-score |
| TCAAATTCTCTTTTCACACTGTGCTAG | 1.58 z-score |
| TTAGCTTTCGGTCTCGGTTAGTGCTAG | 6.75 z-score |
| TTAGATTTCGACACTGGGTTAGTGCTA | 0.975 z-score |
| TCATTTTTCATTTTGTTACTGTGCTAG | 4.89 z-score |
| TTAGATCTAAGTATCGATTAGTGCTAG | -0.154 z-score |
| GAATCTCTCATGTTACATTTGTGCTAG | 1.11 z-score |
| GACTGACTGGGGTTTCGGGACGTGCTA | 0.991 z-score |

Set 4
Cell line: HEK-293T
Effect on: pseudovirus infection
Organism: VSV pseudotyped with SARS-CoV-2 spike
Concentration: 10 µM
Time: 16 h
Reference: vehicle-treated
| Structure (SMILES) | GFP-positive cells |
| --- | --- |
| CC(=O)Oc1ccc(C(c2ccc(OC(C)=O)cc2)c2ccccn2)cc1 | 70.8% |
| CCCCCCCCCC(=O)O[C@H]1CC[C@H]2[C@@H]3CCC4=CC(=O)CC[C@@H]4[C@H]3CC[C@]12C | 93.1% |
| COc1cccc2c1C(=O)c1c(O)c3c(c(O)c1C2=O)C[C@@](O)(C(C)=O)C[C@@H]3O[C@H]1C[C@H](N)[C@H](O)[C@H](C)O1 | 104% |
| CCOC(=O)c1ncn2c1CN(C)C(=O)c1cc(F)ccc1-2 | 69% |
| CN(C)CC/C=C1/c2ccccc2Sc2ccc(Cl)cc21 | 27.4% |

Set 5
Target: Replicase polyprotein 1ab, main protease (rep, Severe acute respiratory syndrome coronavirus 2, UniProt P0DTD1)
Effect on: enzyme activity
Mode: inhibitor
Concentration: 20 µM
Setting: hit confirmation
| Compound | inhibition [%] |
| --- | --- |
| CN1C2=CC(=O)/C(=N\NC(N)=O)C=C2CC1S(=O)(=O)O (stereo not drawn) | -3.9 |
| O=C(Nc1cc(C(F)(F)F)ccc1O)Nc1cc(C(F)(F)F)ccc1O | -18.8 |
| O=C1c2cccc(O)c2C(=O)c2c(O)cc(CO)cc21 | 49.2 |
| CN(CCOc1ccc(-c2ccc3c(c2)OCO3)cc1C(C)(C)C)CC(=O)O | -9.4 |
| CCOC(=O)C1=C(C)NC(=S)NC1c1cccc(O)c1 (stereo not drawn) | 17.1 |

For quick reference, copied from above (set 4):
| Structure (SMILES) | GFP-positive cells |
| --- | --- |
| CC(=O)Oc1ccc(C(c2ccc(OC(C)=O)cc2)c2ccccn2)cc1 | 70.8% |
| CN(C)CC/C=C1/c2ccccc2Sc2ccc(Cl)cc21 | 27.4% |
| CCOC(=O)c1ncn2c1CN(C)C(=O)c1cc(F)ccc1-2 | 69% |
| COc1cccc2c1C(=O)c1c(O)c3c(c(O)c1C2=O)C[C@@](O)(C(C)=O)C[C@@H]3O[C@H]1C[C@H](N)[C@H](O)[C@H](C)O1 | 104% |
